Results collected from several papers.
Lines come from different studies, so protocols differ. “And” joins repeats or separate records; there may be more than shown.
JAK2: Tyrosine-protein kinase JAK2 (JAK2, Homo sapiens, UniProt O60674)

CCn1cc(C(=O)O)c(=O)c2c(N)c(F)c(NC3CCCCC3)cc21
inhibition (JAK2; kinase activity; 0.1 µM, added: ATP at Km): 9.2%

C=CC(=O)N1Cc2nc(-c3cc(-c4cc(Cl)cnc4Cl)c(F)cc3F)n(-c3ccncn3)c2C1
inhibition (JAK2; cell-free assay, inhibitor; 1 µM): 3.5%

O=C(Nc1ccc(Oc2ncnc3[nH]cc(-c4ccccc4)c23)c(F)c1)c1c2n(n(-c3cc(F)ccc3F)c1=O)CCCC2
inhibition (JAK2; enzyme activity, inhibitor; 0.5 µM): 13%

Cc1cccc(O[C@H]2CCC[C@@H](C(C)CNCc3ccncc3)C2)c1 (relative stereo)
inhibition (JAK2; kinase activity, kinome panel screening; 1 µM): 2%

CN1CCN(Cc2ccc(-c3ccc(CO[C@H]4CCC[C@@H]4NC(=O)c4cc(-c5cnn(C)c5)cnc4N)cc3)cc2)CC1
inhibition (Tyrosine-protein kinase JAK2, JH1 (JAK2, Homo sapiens, UniProt O60674); enzyme activity, inhibitor; 0.1 µM): 4%

Cc1cnc2nc1Nc1cc(F)cc(c1)COC/C=C/COCc1cc(ccc1OCCN1CCCC1)N2
inhibition (JAK2; inhibitor, Z'-LYTE kinase; 1.372 nM): 20.9% and 16.7% and 17.7%

CN1CC[C@@H](COc2cnc(C#N)cc2-c2ccn3nc(NC(=O)C4CC4)cc3c2)C1
inhibition (JAK2; enzyme activity, inhibitor; 1 µM): 1%

Cc1cnc2nc1Nc1cccc(c1)COCc1cc(ccc1OCCN1CCOCC1)N2
inhibition (JAK2; inhibitor, Z'-LYTE kinase; 4.115 nM): 16.8% and 14.2% and 13.1%

COc1ccc(C(=O)/C=C/c2ccccc2-c2c[nH]c3ccc(C#N)cc23)c(O)c1
inhibition (JAK2; enzyme activity, inhibitor; 20 µM): -7%

C=CC(=O)Nc1cccc(-c2cnc3[nH]cc(C(=O)NC(C)(C)C)c3n2)c1
inhibition (JAK2; kinase activity; 0.1 µM): 93%

Cc1cnc2nc1Nc1cccc(c1)COCCCCOCc1cc(ccc1OCCN1CCCC1)N2
inhibition (JAK2; inhibitor, Z'-LYTE kinase; 10000 nM): 99.1% and 100% and 93.3%

CS(=O)(=O)Nc1cccc(-c2csc3cnc(Nc4ccc(N5CCN(CCCCCOc6cccc7c6C(=O)N(C6CCC(=O)NC6=O)C7=O)CC5)cc4)nc23)c1 (centres unmarked)
inhibition (Tyrosine-protein kinase JAK2, JH2 domain (JAK2, Homo sapiens, UniProt O60674); probe labelling, inhibitor, KiNativ chemoproteomics; MOLT-4; 1 µM): 26.2%

NC(=O)C[C@H]1CCc2sc3ncnc(O[C@H]4CC[C@H](N5CCOCC5)CC4)c3c21
inhibition (JAK2; enzyme activity, inhibitor; 10 µM): 4%

Cc1cnc2nc1Nc1cccc(c1)COC/C=C/COCc1cc(ccc1OCCN1CCOCC1)N2
inhibition (JAK2; inhibitor, Z'-LYTE kinase; 0.2441 nM): 23.1% and 22.2% and 28.8%

Some of these lines once more:
Cc1cnc2nc1Nc1cccc(c1)COCc1cc(ccc1OCCN1CCOCC1)N2
inhibition (JAK2; inhibitor, Z'-LYTE kinase; 4.115 nM): 16.8% and 14.2% and 13.1%
